Measured values of several laboratories.
Each line is one published result; not all experiments were run side by side. “And” joins repeats or separate records; there may be more than shown. ± gives the spread as reported. Values after ≈ are worked out from the molar mass of the structure shown.

Under “striatal DOPAC content”, `C#CCN(C)[C@H](C)Cc1ccccc1` is recorded as 0.265 ng/mg tissue and 0.257 ng/mg tissue and 0.214 ng/mg tissue and 0.263 ng/mg tissue and 0.372 ng/mg tissue and 0.256 ng/mg tissue and 0.198 ng/mg tissue (HPLC-ECD; MPTP mouse model, striatum; 10 mg/kg).
`Cc1cn([C@H]2O[C@@H](CO[P@@](=O)(N[C@@H](C)C(=O)OC(C)C)Oc3ccccc3)[C@H](O)[C@H]2F)c(=O)[nH]c1=O` — result for “change in HBV DNA”: 2.72 log10 IU/mL (adults with chronic hepatitis B; 25 mg, day 28; reference: baseline).
`CCCNCCc1c[nH]c2cccc(O)c12.CCCNCCc1c[nH]c2cccc(O)c12.O=C(O)/C=C/C(=O)O` — result for “body temperature change”: -0.3 ± 0.1 °C (C57BL/6J mice; subcutaneous, 0.1 mg/kg; reference: pre-session baseline).
`COc1ccc2c(c1)[C@]13CCCC[C@@H]1[C@H](C2)N(C)CC3` has an inhibition of -19.5% (THP-1; pyroptotic LDH release; 2 µM, 40 min, added: LPS then nigericin).
For `COc1c(CCC[P+](c2ccccc2)(c2ccccc2)c2ccccc2)cc2c(c1OC)OCO2.[I-]`, the TGI was -4.09 log M (OVCAR-5; SRB).
`C=CCNCCc1c[nH]c2cccc(O)c12.C=CCNCCc1c[nH]c2cccc(O)c12.O=C(O)/C=C/C(=O)O` — result for “body temperature change”: -6.5 ± 0.7 °C (C57BL/6J mice; subcutaneous, 30 mg/kg; reference: pre-session baseline).
Under “EFS ratio (T/C)”, `CN1CCN(S(=O)(=O)c2cc([N+](=O)[O-])ccc2N(CCOS(C)(=O)=O)CCOS(C)(=O)=O)CC1` is recorded as 19.2 (NSG mice, sample BG PDX; intraperitoneal, 25 mg/kg weekly x3; reference: treated over vehicle).
`Nc1ncnc2c1ncn2[C@@H]1O[C@@H]2COP(=O)(O)O[C@H]3[C@@H](O)[C@H](n4cnc5c(=O)[nH]cnc54)O[C@@H]3COP(=O)(O)O[C@H]2[C@H]1O` gave a fold enrichment of 8.1 (Zika virus; downregulated Reactome pathway, RNA sequencing, refers to: Extracellular matrix organization (R-HSA-1474244); HFF-1; reference: ZIKV-infected untreated).
`CCCCC1(CCCC)CN(c2ccccc2)c2cc(SC)c(OCC(=O)N[C@@H](C(=O)NCC(=O)O)c3ccccc3)cc2S(=O)(=O)C1` has a serum LDL-C of 99.2 mg/dL (refers to: LDL cholesterol; human, serum; 15 mg once daily, day 2).
`COc1ccc(CCC2CCCC(CCc3ccc(OC)cc3)N2C[C@@H](O)CO)cc1.Cl` (stereo in doubt) — result for “time of significant inhibition”: 50 to 60 min (methamphetamine-evoked dopamine release; rat striatal slices; 30 µM, added: methamphetamine 5 µM).
`CC[C@H](C)[C@@H]1NC(=O)[C@@H]2CCCN2C(=O)[C@H](CC(C)C)NC(=O)[C@H](CC(C)C)NC(=O)CNC(=O)[C@@H](NC(=O)[C@@H](NC(=O)[C@H](CC(=O)O)NC(=O)CNC(=O)[C@@H](NC(=O)[C@H](C)NC(=O)CNC(=O)[C@H](CCCCN)NC(=O)[C@H](CC(C)C)NC(=O)[C@H](CC(C)C)NC(=O)[C@H](CCCCN)NC(=O)CNC(=O)[C@@H](NC(=O)[C@@H](N)CC(C)C)C(C)C)C(C)C)C(C)C)CSSC[C@@H](C(=O)O)NC1=O`: “log2 fold change” -1 (RNA-seq, refers to: Notch2; mouse, traumatic brain injury model, frontal cortex and hippocampus; dose not given; reference: TBI alone).
`COc1cc(CCNCc2ccccc2OC)c(OC)cc1Br`: “loss of potency” “no effect” (5-HT2C receptor V102L, human; Gq dissociation, BRET; reference: wild type).
`Cc1cc(Nc2cc(N3CCN(C)CC3)nc(Sc3ccc(NC(=O)C4CC4)cc3)n2)[nH]n1` gave a maximum inhibition of 0% (human coronavirus OC43; virus-induced cell killing; MRC-5; maximum over 10 doses).
`C/C=C(/C)C(=O)O[C@H]1C(C)=C2[C@H]([C@@H]1OC(=O)CCCCCCC)[C@@](C)(OC(C)=O)C[C@H](OC(=O)CCC)[C@@]1(O)[C@H]2OC(=O)[C@@]1(C)O`: “normalized enrichment score” 1.36 (HEK-293T; RNA-seq GSEA, refers to: Hallmark fatty acid metabolism; 500 nM, 6 h; direction not given).
For `CC1=C(/C=C/C(C)=C/C=C/C(C)=C/C(=O)O)C(C)(C)CCC1`, the maximum inhibition was 16% (human coronavirus OC43; virus-induced cell killing; MRC-5; screen).
Under “body temperature change”, `CCNCCc1c[nH]c2cccc(O)c12.CCNCCc1c[nH]c2cccc(O)c12.O=C(O)CCC(=O)O` is recorded as -0.5 ± 0.2 °C (C57BL/6J mice; subcutaneous, 0.1 mg/kg; reference: pre-session).
`CO[C@H]1C[C@@H]2CC[C@@H](C)[C@@](O)(O2)C(=O)C(=O)N2CCCC[C@H]2C(=O)O[C@H]([C@H](C)C[C@@H]2CC[C@@H](OC(=O)C(C)(CO)CO)[C@H](OC)C2)CC(=O)[C@H](C)/C=C(\C)[C@@H](O)[C@@H](OC)C(=O)[C@H](C)C[C@H](C)/C=C/C=C/C=C/1C` gave a maximum inhibition of 0% (human coronavirus OC43; virus-induced cell killing; MRC-5; maximum over 10 doses).
For `Cc1ccc(Nc2ccnc(N3CCC(C(=O)NCCCc4ccccc4)CC3)n2)cc1`, the cytotoxicity efficacy was -30.4% (Vero-E6; CellTiter-Glo ATP; concentration not given, 72 h, second round 5-point; reference: DMSO 0%, hyamine -100%, more negative, more toxic).
For `C[C@]12CC[C@H]3[C@@H](CC=C4CC(O)CC[C@@]43CO)[C@@H]1CCC2O` (some centres unmarked), “plasma cholesterol level” read “decreased” (GAN diet MASH rats; ip, 20 mg/kg, two weeks; reference: GAN vehicle).
For `O=C(NCc1cccs1)C1CCCN(Cc2cccc(-c3ccc(F)cc3F)c2)C1` (centres unmarked), the maximum response was -10.4% (Vero-E6; CellTiter-Glo ATP; 72 h, first round 5-point; reference: DMSO 0%, hyamine -100%, more negative, more toxic).
`CC(C)N1CCC(NC2CCN(c3cccc(-c4cc5cc(F)ccc5[nH]4)c3)CC2)CC1` gave a CC50 of 7.21 µM (A549).
`C[C@H]1O[C@@H](O[C@H]2CC[C@@]3(C)[C@@H](CC[C@]4(C)[C@@H]3C=C[C@]35OC[C@@]6(CCC(C)(C)C[C@H]63)[C@@H](O)C[C@]54C)[C@]2(C)CO)[C@H](O)[C@@H](O[C@@H]2O[C@H](CO)[C@@H](O)[C@H](O)[C@H]2O)[C@H]1O` has an adipose area of 13.4% and 12% and 15.7% and 14.5% and 12.6% and 13.7% and 9.1% (H&E staining; Mus musculus, chronic-plus-binge ethanol-fed, AAV8-TBG-Null vector, liver; oral, high dose; reference: section).
`Cn1cnc2c(F)c(Nc3ccc(Br)cc3Cl)c(C(=O)NOCCO)cc21` gave a maximum inhibition of 0% (human coronavirus OC43; virus-induced cell killing; MRC-5; maximum over 10 doses).
`N=C(N)NCCC[C@H](NC(=O)[C@@H](Cc1ccccc1)NC(=O)[C@H](Cc1c[nH]cn1)NC(=O)CCCc1ccccc1)C(=O)N[C@@H](Cc1c[nH]c2ccccc12)C(=O)NCC(=O)N[C@@H](CCCCNC(=O)CCCCCNC(=O)CN1CCN(CC(=O)O)CCN(CC(=O)O)CCN(CC(=O)O)CC1)C(N)=O` [actinium-225 labelled] — result for “kidney elimination rate constant (ke)”: 0.0008 h⁻¹ (five-compartment model fit; SCID mice, A-375 and A-375/MC1R xenografts).
The maximum inhibition of `CC(C)C[C@H](NC(=O)CNC(=O)c1cc(Cl)ccc1Cl)B(O)O` is reported as 0% (human coronavirus OC43; virus-induced cell killing; MRC-5; maximum over 10 doses).
`CC(C)(C)NCCc1c[nH]c2cccc(O)c12.CC(C)(C)NCCc1c[nH]c2cccc(O)c12.O=C(O)/C=C/C(=O)O`: “body temperature change” -0.9 ± 0.1 °C (C57BL/6J mice; subcutaneous, 30 mg/kg; reference: pre-session baseline).
The MIC of `CC1(C)S[C@@H]2[C@H](NC(=O)[C@H](N)c3ccccc3)C(=O)N2[C@H]1C(=O)O` is reported as 2 µg/mL (≈ 5.72 µM) (Salmonella enterica; 20 h, pH 7.2).
`OC[C@H]1O[C@@H](c2ccc(F)c(Cc3cc4ccccc4s3)c2)[C@H](O)[C@@H](O)[C@@H]1O` has a maximum inhibition of 18.6% (human coronavirus OC43; virus-induced cell killing; MRC-5; screen).
`O=C(O)/C=C/C(=O)O.Oc1cccc2[nH]cc(CCNC3CCCCC3)c12` — result for “body temperature change”: 0.2 ± 0.1 °C (C57BL/6J mice; subcutaneous, 3 mg/kg; reference: pre-session baseline).
`COc1cc(CCC[P+](c2ccccc2)(c2ccccc2)c2ccccc2)c(OC)c2c1OCO2.[I-]` gave a Log10GI50 of -4.11 log M (NCI/ADR-RES; SRB).
The maximum inhibition of `Cc1nc(Nc2[nH]nc3c2CN(C(=O)N[C@H](CN(C)C)c2ccccc2)C3(C)C)c2sccc2n1` is reported as 0% (human coronavirus OC43; virus-induced cell killing; MRC-5; maximum over 10 doses).
`CC(C)NCCc1c[nH]c2cccc(O)c12.O=C(O)/C=C/C(=O)O`: “body temperature change” 0 ± 0.1 °C (C57BL/6J mice; subcutaneous, 0.3 mg/kg; reference: pre-session baseline).
`CS(=O)(=O)Nc1ncn(-c2cc(F)c(COc3ccc(OS(=O)(=O)F)cc3)c(F)c2)n1` has an EC90 of 0.11 µM (Mycobacterium tuberculosis; intracellular growth; THP-1-derived macrophages, H37Rv).
`NS(=O)(=O)c1cc(C(=O)O)c(NCc2ccco2)cc1Cl` gave a maximum inhibition of 11.8% (human coronavirus OC43; virus-induced cell killing; MRC-5; screen).
For `CCCCNCCc1c[nH]c2cccc(O)c12.O=C(O)/C=C/C(=O)O`, “body temperature change” read -2.7 ± 0.2 °C (C57BL/6J mice; subcutaneous, 30 mg/kg; reference: pre-session baseline).

Repeated from above:
`COc1ccc(CCC2CCCC(CCc3ccc(OC)cc3)N2C[C@@H](O)CO)cc1.Cl` (stereo in doubt) — result for “time of significant inhibition”: 50 to 60 min (methamphetamine-evoked dopamine release; rat striatal slices; 30 µM, added: methamphetamine 5 µM).
`CC[C@H](C)[C@@H]1NC(=O)[C@@H]2CCCN2C(=O)[C@H](CC(C)C)NC(=O)[C@H](CC(C)C)NC(=O)CNC(=O)[C@@H](NC(=O)[C@@H](NC(=O)[C@H](CC(=O)O)NC(=O)CNC(=O)[C@@H](NC(=O)[C@H](C)NC(=O)CNC(=O)[C@H](CCCCN)NC(=O)[C@H](CC(C)C)NC(=O)[C@H](CC(C)C)NC(=O)[C@H](CCCCN)NC(=O)CNC(=O)[C@@H](NC(=O)[C@@H](N)CC(C)C)C(C)C)C(C)C)C(C)C)CSSC[C@@H](C(=O)O)NC1=O`: “log2 fold change” -1 (RNA-seq, refers to: Notch2; mouse, traumatic brain injury model, frontal cortex and hippocampus; dose not given; reference: TBI alone).
`COc1cc(CCNCc2ccccc2OC)c(OC)cc1Br`: “loss of potency” “no effect” (5-HT2C receptor V102L, human; Gq dissociation, BRET; reference: wild type).
`Cc1cc(Nc2cc(N3CCN(C)CC3)nc(Sc3ccc(NC(=O)C4CC4)cc3)n2)[nH]n1` gave a maximum inhibition of 0% (human coronavirus OC43; virus-induced cell killing; MRC-5; maximum over 10 doses).
`C/C=C(/C)C(=O)O[C@H]1C(C)=C2[C@H]([C@@H]1OC(=O)CCCCCCC)[C@@](C)(OC(C)=O)C[C@H](OC(=O)CCC)[C@@]1(O)[C@H]2OC(=O)[C@@]1(C)O`: “normalized enrichment score” 1.36 (HEK-293T; RNA-seq GSEA, refers to: Hallmark fatty acid metabolism; 500 nM, 6 h; direction not given).
